Measured values from different studies.
Each numbered part is a random draw from the data of one study; scales do not carry over between parts.

Study 1
Target: Runt-related transcription factor 3, Runt domain (RUNX3, Homo sapiens, UniProt Q13761, residues 53-186)
Sequence of UniProt Q13761 (53-186, looked up): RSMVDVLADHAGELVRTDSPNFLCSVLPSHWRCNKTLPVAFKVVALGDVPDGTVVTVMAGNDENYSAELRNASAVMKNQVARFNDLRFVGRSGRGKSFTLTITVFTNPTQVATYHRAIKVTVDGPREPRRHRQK
Method: protein-binding microarray
Form: hairpin DNA
Medium: in vitro
Tested at: not given
Notes: whole hairpin DNA, median over replicate spots
Baseline: not given
Reading: higher = stronger binding
Endpoint: median fluorescence
Sequence = GAGGCCCAAGCGCAACAGCCTCCTGGCTGTTGCGCTTGGGCCTCACACTC (5mC at 35); value = 4960 a.u.
Sequence = GAGGCCTGCGGCGGTTGGCCTCCTGGCCAACCGCCGCAGGCCTCACACTC (5mC at 9 35); value = 6510 a.u.
Sequence = GAGGCCGGTCGCGGTTGGCCTCCTGGCCAACCGCGACCGGCCTCACACTC; value = 6620 a.u.
Sequence = GAGGCCTGTCGCGGTTGGCCTCCTGGCCAACCGCGACAGGCCTCACACTC (5mC at 10); value = 7430 a.u.
Sequence = GACGCCTGTCGCGGTTGGCCTCCTGGCCAACCGCGACAGGCGTCACACTC (5mC at 3); value = 5820 a.u.
Sequence = GAGGCCTCTTGTGGTTGGCCTCCTGGCCAACCACAAGAGGCCTCACACTC (5mC at 8); value = 5130 a.u.
Sequence = GAGGCCTGTTGTGCTTGGCCTCCTGGCCAAGCACAACAGGCCTCACACTC (5mC at 14); value = 4350 a.u.
Sequence = GAGGGCTGTCGCGGTTGGCCTCCTGGCCAACCGCGACAGCCCTCACACTC (5mC at 40); value = 6370 a.u.

Study 2
Target: Centromere-binding protein 1, full length, His-tagged (CBF1, Saccharomyces cerevisiae, UniProt P17106, residues 1-351)
Sequence of UniProt P17106 (whole entry, looked up): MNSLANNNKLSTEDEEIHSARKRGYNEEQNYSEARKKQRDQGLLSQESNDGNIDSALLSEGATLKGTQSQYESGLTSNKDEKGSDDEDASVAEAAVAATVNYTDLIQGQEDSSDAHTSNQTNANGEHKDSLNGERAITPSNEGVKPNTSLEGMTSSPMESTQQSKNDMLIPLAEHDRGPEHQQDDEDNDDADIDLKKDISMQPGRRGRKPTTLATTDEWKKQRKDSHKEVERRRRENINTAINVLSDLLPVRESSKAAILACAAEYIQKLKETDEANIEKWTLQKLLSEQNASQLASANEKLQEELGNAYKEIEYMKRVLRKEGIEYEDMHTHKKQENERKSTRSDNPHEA
Method: competition protein-binding microarray
Form: double-stranded DNA, one strand shown
Medium: in vitro
Tested at: 2 µM
Notes: whole 60-bp probe, lowest competitor level
With: Pho4 competitor, 0.05 µM
Reading: higher = stronger binding
Endpoint: fluorescence intensity
Sequence = TTATTAGGTTCGAGTCACGTGATGGGTCCTTTTCTGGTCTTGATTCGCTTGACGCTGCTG; value = 14000 a.u.
Sequence = TTCTCGAAGAGTCGGCACGGGATCCTGAAAAAAGCAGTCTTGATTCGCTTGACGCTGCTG; value = 410 a.u.
Sequence = GAAACAGAACTCGCTGATGTGATATTCACCATTCCAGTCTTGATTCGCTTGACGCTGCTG; value = 76.5 a.u.
Sequence = CTACAGACTTAGCACCACATGGGCACCACCAAGGTTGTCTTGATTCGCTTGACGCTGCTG; value = 72.6 a.u.
Sequence = CGGGGTTAAGTTTTTCACGTGGCTTGCTTGCAGCAGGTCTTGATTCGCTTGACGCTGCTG; value = 709 a.u.
Sequence = CTTTCCCGATCTTGTTATGTGGGTGTAGCACATTTGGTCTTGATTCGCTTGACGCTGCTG; value = 91.5 a.u.
Sequence = CTTCTGTAAATTTGTGCCGTGGGTGGACGCGCCCCGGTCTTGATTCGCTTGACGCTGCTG; value = 81.2 a.u.
Sequence = ATTCCTGTTCCGGGACAAGTGCTACAACTGACCTTAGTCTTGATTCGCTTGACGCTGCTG; value = 54.4 a.u.

Study 3
Target: Histone acetyltransferase KAT6A, winged helix 2, GST fusion (KAT6A, Homo sapiens, UniProt Q92794, residues 85-181)
Method: protein binding microarray
Form: double-stranded DNA, one strand shown
Medium: in vitro
Tested at: not given
Notes: 8-mer, flanks averaged, mean of 2 arrays, mostly near background
Baseline: not given
Reading: higher = stronger binding
Endpoint: E-score
Target sequence (chain): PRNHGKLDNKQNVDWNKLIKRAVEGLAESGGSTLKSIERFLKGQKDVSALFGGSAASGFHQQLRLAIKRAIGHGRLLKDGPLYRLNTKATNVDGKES
Sequence = CCACGGGG; value = 0.16
Sequence = CCATCGCA; value = 0.0197
Sequence = CGGATTAG; value = 0.0153
Sequence = CCCTCAGC; value = 0.034
Sequence = ATGCGCTG; value = 0.0813
Sequence = CATTGCAG; value = 0.133
Sequence = CTATAACA; value = -0.0611
Sequence = CGTCCGCC; value = 0.193

Mixed results
SMILES = CCOc1ccc(OCC)c(NC(=O)c2cc(S(=O)(=O)N3CCOCC3)cn2C)c1; host = human; medium = microsomes or S9; tested at = 2 µM; time = 0.5 h; endpoint = remaining compound; value = 62.6%

A few entries again (study 1):
Sequence = GAGGCCGGTCGCGGTTGGCCTCCTGGCCAACCGCGACCGGCCTCACACTC; value = 6620 a.u.
Sequence = GAGGCCTGCGGCGGTTGGCCTCCTGGCCAACCGCCGCAGGCCTCACACTC (5mC at 9 35); value = 6510 a.u.
Sequence = GAGGCCTGTCGCGGTTGGCCTCCTGGCCAACCGCGACAGGCCTCACACTC (5mC at 10); value = 7430 a.u.
